Measured values pooled from the literature.
Protocols differ between the studies behind these lines. “And” joins repeats or separate records; there may be more than shown. ± marks the error that the study gave.
UniProt P10635, sequence (whole entry, looked up): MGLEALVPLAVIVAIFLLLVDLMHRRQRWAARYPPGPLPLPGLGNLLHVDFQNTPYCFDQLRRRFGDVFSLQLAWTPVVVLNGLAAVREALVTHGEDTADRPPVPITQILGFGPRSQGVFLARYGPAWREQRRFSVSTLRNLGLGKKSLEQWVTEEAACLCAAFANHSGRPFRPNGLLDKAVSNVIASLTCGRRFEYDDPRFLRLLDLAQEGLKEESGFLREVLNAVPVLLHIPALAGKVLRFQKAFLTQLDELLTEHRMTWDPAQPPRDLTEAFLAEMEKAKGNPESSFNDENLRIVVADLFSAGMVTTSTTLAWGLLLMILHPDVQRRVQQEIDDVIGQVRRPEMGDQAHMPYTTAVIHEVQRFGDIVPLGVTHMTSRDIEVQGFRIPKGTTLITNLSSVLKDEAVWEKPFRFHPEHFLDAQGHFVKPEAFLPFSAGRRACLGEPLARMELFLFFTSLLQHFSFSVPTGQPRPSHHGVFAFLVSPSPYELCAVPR
UniProt Q12866, sequence (whole entry, looked up): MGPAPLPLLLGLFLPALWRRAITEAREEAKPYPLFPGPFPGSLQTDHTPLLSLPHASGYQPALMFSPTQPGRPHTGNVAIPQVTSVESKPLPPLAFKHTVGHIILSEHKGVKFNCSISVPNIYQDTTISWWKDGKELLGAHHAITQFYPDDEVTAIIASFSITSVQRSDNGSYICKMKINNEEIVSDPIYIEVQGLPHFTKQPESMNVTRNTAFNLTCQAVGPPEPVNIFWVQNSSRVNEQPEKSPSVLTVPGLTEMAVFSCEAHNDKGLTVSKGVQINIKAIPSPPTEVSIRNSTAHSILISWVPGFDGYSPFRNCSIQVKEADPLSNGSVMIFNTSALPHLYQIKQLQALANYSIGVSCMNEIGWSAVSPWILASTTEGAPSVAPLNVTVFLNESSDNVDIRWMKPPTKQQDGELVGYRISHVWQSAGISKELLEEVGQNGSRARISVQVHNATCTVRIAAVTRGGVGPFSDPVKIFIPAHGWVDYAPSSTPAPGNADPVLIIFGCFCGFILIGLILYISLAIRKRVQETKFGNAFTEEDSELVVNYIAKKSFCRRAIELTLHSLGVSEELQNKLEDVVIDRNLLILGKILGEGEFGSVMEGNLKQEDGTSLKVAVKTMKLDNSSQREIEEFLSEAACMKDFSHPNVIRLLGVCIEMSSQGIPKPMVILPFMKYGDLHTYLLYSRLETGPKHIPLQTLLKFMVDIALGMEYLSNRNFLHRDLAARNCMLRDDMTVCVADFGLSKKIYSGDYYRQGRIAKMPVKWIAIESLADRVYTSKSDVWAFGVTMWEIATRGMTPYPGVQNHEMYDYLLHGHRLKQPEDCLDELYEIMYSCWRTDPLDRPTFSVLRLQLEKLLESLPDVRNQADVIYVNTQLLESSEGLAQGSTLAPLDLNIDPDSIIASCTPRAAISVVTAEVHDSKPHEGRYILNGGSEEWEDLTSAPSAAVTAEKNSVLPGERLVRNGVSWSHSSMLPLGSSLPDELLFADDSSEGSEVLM
UniProt Q14012, sequence (whole entry, looked up): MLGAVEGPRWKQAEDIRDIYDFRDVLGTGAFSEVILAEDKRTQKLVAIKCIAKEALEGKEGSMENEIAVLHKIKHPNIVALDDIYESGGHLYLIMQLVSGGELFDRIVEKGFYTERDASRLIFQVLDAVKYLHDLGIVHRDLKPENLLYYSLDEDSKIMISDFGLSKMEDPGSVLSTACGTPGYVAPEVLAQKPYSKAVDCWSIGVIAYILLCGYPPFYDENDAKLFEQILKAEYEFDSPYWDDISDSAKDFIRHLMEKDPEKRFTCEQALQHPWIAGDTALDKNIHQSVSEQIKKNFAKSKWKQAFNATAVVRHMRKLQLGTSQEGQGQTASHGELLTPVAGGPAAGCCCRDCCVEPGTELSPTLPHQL
UniProt Q00535, sequence (whole entry, looked up): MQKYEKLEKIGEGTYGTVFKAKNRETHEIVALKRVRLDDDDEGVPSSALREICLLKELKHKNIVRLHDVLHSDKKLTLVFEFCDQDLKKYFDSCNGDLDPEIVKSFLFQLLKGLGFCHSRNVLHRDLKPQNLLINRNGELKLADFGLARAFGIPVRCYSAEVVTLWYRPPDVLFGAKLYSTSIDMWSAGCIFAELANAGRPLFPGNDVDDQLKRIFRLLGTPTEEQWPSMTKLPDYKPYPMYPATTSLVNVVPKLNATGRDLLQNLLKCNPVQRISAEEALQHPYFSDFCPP

CC(C)C[C@H](NC(=O)[C@H](Cc1ccc(O)cc1)NC(=O)[C@H](Cc1c[nH]cn1)NC(=O)[C@H](CCCCN)NC(=O)[C@H](CC(C)C)NC(=O)[C@H](C)NC(=O)[C@H](CC(C)C)NC(=O)[C@H](CCCCN)NC(=O)CNC(=O)[C@@H](NC(=O)[C@@H](NC(=O)[C@H](CCCCN)NC(=O)[C@@H](NC(=O)[C@H](CCC(=O)O)NC(=O)[C@H](C)NC(=O)[C@H](CCCCN)NC(=O)[C@H](CCCCN)NC(=O)[C@H](CC(C)C)NC(=O)[C@H](CC(C)C)NC(=O)[C@@H](NC(=O)[C@H](CCCNC(=N)N)NC(=O)[C@H](Cc1c[nH]c2ccccc12)NC(=O)CN)[C@@H](C)O)C(C)C)[C@@H](C)O)C(C)C)C(N)=O — chronic toxic concentration (zebrafish embryos 4 hpf, E3 medium; 24 h): 5 µM
O=C1NC(=O)c2c1c1cc(F)c[n+]3c1c1c2c2cc(O)ccc2[n]1[Ru-4]312([N]=C=S)[S+]3CC[S+]1CC[S+]2CC3 (stereo not shown) — remaining activity (Cyclin-dependent kinase 5, with p25 (CDK5, Homo sapiens, UniProt Q00535); enzyme activity; 100 nM, human enzyme, with: 10 µM ATP; reference: untreated): 69%
CS(C)(=O)=Nc1ccc(-c2ccc(-c3nc4cc(O[C@@H]5CO[C@H]6[C@@H]5OC[C@H]6O)[nH]c4cc3F)cc2)cc1 — inhibition (MERTK (Homo sapiens, UniProt Q12866); enzyme activity, inhibitor; 10 µM): -2%
N#[11C]c1ccc(-c2csc(NN=C3CCCC3)n2)cc1 — radioactivity uptake (C57BL/6 mice, male, pancreas; intravenous, 3 MBq, 60 min): 1.03 ± 0.35 %ID/g
O=C1NC2(CC2)COc2ncc(F)cc2[C@H]2COCCN2c2ccn3ncc1c3n2 — serum LDH activity (Sprague-Dawley rat, male, serum; oral, 10 mg/kg/day, end of treatment, 4-week subacute toxicity): 845 ± 401 U/L
COC(=O)[C@@H](NC(=O)c1nn(Cc2ccc(F)cc2)c2cc(OCCCCNC(=N)N)ccc12)C(C)(C)C — Kp,uu, brain to plasma, unbound partition coefficient (mouse; intraperitoneal, 3 mg/kg, 0.5 h; reference: brain over plasma): 0.0012
COc1ccccc1-c1n[nH]c2nc(NC3CCN(C(=O)Cc4ccc(F)cc4F)CC3)ncc12 — relative abundance (bead binding, competition bead pull-down, item: LINJ.22.0180; Leishmania donovani extract; 10 µM; reference: vehicle): 0.9
CC(C)=CCC/C(C)=C/CCn1cc(CC(P(=O)(O)O)P(=O)(O)O)nn1 — clearance (CD-1 mouse, plasma; intravenous, 0.5 mg/kg, single dose): 5.6 mL/min/kg
CSCC[C@H](NC(=O)CNC(=O)[C@H](CCCCN)NC(=O)[C@H](CC(C)C)NC(=O)[C@@H]1CCCN1C(=O)[C@H](CO)NC(=O)[C@H](Cc1c[nH]cn1)NC(=O)[C@H](Cc1c[nH]c2ccccc12)NC(=O)[C@H](CCCNC(=N)N)NC(=O)[C@H](CC(C)C)NC(=O)[C@H](CCCNC(=N)N)NC(=O)[C@H](Cc1c[nH]c2ccccc12)NC(=O)[C@H](CS)NC(=O)CCCCCNC(=O)CN1CCN(CC(=O)O)CCN(CC(=O)O)CCN(CC(=O)O)CC1)C(=O)O [copper-64 labelled] — tumour-to-muscle ratio (BALB/c nude mouse, Huh-7 tumour, tumour and muscle; intravenous, 1.85 MBq, 2 h, ex vivo biodistribution; reference: tumour over muscle): 8.42
CN(C)[C@H]1C[C@@]23CC[C@@]4(O2)C(=CC[C@]2(C)[C@@H](c5ccc6ccncc6c5)CC[C@H]24)C=C3[C@@H](O)[C@@H]1O — inhibition (CAMK1 (Homo sapiens, UniProt Q14012); ATP probe labelling, inhibitor, KiNativ profiling; 0.1 µM): -10.9%
CC(C)[C@H](NC(=O)[C@@H](NC(=O)[C@H](CCCNC(=N)N)NC(=O)[C@H](CCCNC(=N)N)NC(=O)[C@H](CCCNC(=N)N)NC(=O)[C@H](CCC(N)=O)NC(=O)[C@H](CCCNC(=N)N)NC(=O)[C@H](CCCNC(=N)N)NC(=O)[C@H](CCCCN)NC(=O)[C@H](CCCCN)NC(=O)[C@H](CCCNC(=N)N)NC(=O)CN)[C@@H](C)O)C(=O)N[C@H](C(=O)N[C@@H](CO)C(=O)N1CCC[C@H]1C(=O)O)[C@@H](C)O — organ weight (ICR mice, male, spleen; intranasal, 5 mg/kg daily, 4 weeks): 0.094 ± 0.022 g
Cc1cc(-c2ccc3ccccc3c2)nnc1NCCN1CCN(C)CC1 — remaining compound (Cytochrome P450 2D6 (CYP2D6, Homo sapiens, UniProt P10635); substrate; recombinant enzyme; 100 nM, 1 h): 119%
CC(C)(C)C(=O)OCOP(=O)(OCOC(=O)C(C)(C)C)C1CCCN(O)C1=O (stereo not shown) — TGI (SR): 7.87 µM
COC(=O)[C@H]1[C@@H](c2ccc(Cl)cc2)C[C@@H]2CC[C@H]1N2CCCCCCCCCCCc1c2ccccc2cc2ccccc12 — pKa (fluorometric titration; 1 µM, 10% DMSO): 4.5
CC[C@H](C)[C@H](NC(=O)[C@H](C)NC(=O)[C@H](CCCCN)NC(=O)[C@H](CCCCN)NC(=O)[C@@H](N)CCCNC(=N)N)C(=O)N[C@@H](CCCCN)C(=O)N[C@@H](CC(C)C)C(=O)N[C@H](C(=O)N[C@@H](CCCCN)C(=O)N[C@@H](CCCCN)C(=O)N[C@@H](CC(C)C)C(=O)N[C@H](C(=O)N[C@@H](CCCCN)C(=O)N[C@@H](CCCCN)C(=O)N[C@@H](CC(C)C)C(=O)N[C@@H](CCCCN)C(=O)N[C@@H](CCCCN)C(=O)N[C@@H](C)C(=O)N[C@@H](CC(C)C)C(=O)N[C@@H](CCCCN)C(=O)O)C(C)C)C(C)C — hemolysis (human red blood cells; 16 mg/L, 1 h): 2.19% and 1.29% and 2.78%
CCN(CC)CCOc1ccc(-c2nnn(Cc3ccc(OC)cc3)c2N)cc1 — respiratory function (Sprague-Dawley rat; oral, up to 100 mg/kg): no effect
NC1CCN(C(=O)Oc2ccc(C3CCCC4(C3)OOC3(O4)C4CC5CC(C4)CC3C5)cc2)CC1 (racemic) — bioavailability (male Sprague-Dawley rat, plasma; oral, 50 mg/kg): 27.6%
CC[C@H](C)[C@H](NC(=O)[C@H](CCCCN)NC(=O)CNC(=O)[C@H](CC(C)C)NC(=O)[C@H](Cc1ccccc1)NC(=O)[C@H](CCCCN)NC(=O)[C@H](CO)NC(=O)[C@H](Cc1ccccc1)NC(=O)[C@H](Cc1c[nH]c2ccccc12)NC(=O)[C@H](CCC(N)=O)NC(=O)[C@@H](NC(=O)[C@H](Cc1ccccc1)NC(=O)CCCCCNC(=O)CN1CCN(CC(=O)O)CCN(CC(=O)O)CCN(CC(=O)O)CC1)C(C)C)C(=O)N[C@@H](CCC(=O)O)C(=O)N1CCC[C@H]1C(=O)N[C@@H](CC(=O)O)C(=O)N[C@H](C(=O)N[C@@H](CO)C(=O)N[C@@H](CCC(N)=O)C(=O)N[C@H](C(=O)N[C@@H](CCC(N)=O)C(=O)N[C@@H](CC(=O)O)C(=O)N1CCC[C@H]1C(=O)N[C@@H](CC(N)=O)C(=O)N[C@@H](CC(=O)O)C(=O)N[C@@H](CCC(N)=O)C(=O)N[C@@H](Cc1ccc(O)cc1)C(=O)N[C@@H](CCC(=O)O)C(=O)N1CCC[C@H]1C(=O)N[C@@H](Cc1ccccc1)C(=O)O)C(C)C)C(C)C [copper-64 labelled] — SUVmean (dynamic PET; mouse both sexes, CT26 tumour, checkpoint inhibitor-treated, tumour; intravenous, 100 µCi/mouse, 330 s): 2.56 SUV
C=C/C=C/C[C@@H](C)[C@@H](O)[C@H]1C(=O)N[C@@H](CC)C(=O)N(C)CC(=O)N(C)[C@@H](CC(C)C)C(=O)N[C@@H](C(C)C)C(=O)N(C)[C@@H](CC(C)C)C(=O)N[C@@H](C)C(=O)N[C@H](C)C(=O)N(C)[C@@H](CC(C)C)C(=O)N(C)[C@@H](CC(C)C)C(=O)N(C)[C@@H](C(C)C)C(=O)N1C — plasma HCO3− level (Wistar Kyoto rat, male, plasma; ip, 0.5 mg/kg/day, day 18): 24.2 ± 0.7 mmol/L

For quick reference, copied from above:
CC[C@H](C)[C@H](NC(=O)[C@H](CCCCN)NC(=O)CNC(=O)[C@H](CC(C)C)NC(=O)[C@H](Cc1ccccc1)NC(=O)[C@H](CCCCN)NC(=O)[C@H](CO)NC(=O)[C@H](Cc1ccccc1)NC(=O)[C@H](Cc1c[nH]c2ccccc12)NC(=O)[C@H](CCC(N)=O)NC(=O)[C@@H](NC(=O)[C@H](Cc1ccccc1)NC(=O)CCCCCNC(=O)CN1CCN(CC(=O)O)CCN(CC(=O)O)CCN(CC(=O)O)CC1)C(C)C)C(=O)N[C@@H](CCC(=O)O)C(=O)N1CCC[C@H]1C(=O)N[C@@H](CC(=O)O)C(=O)N[C@H](C(=O)N[C@@H](CO)C(=O)N[C@@H](CCC(N)=O)C(=O)N[C@H](C(=O)N[C@@H](CCC(N)=O)C(=O)N[C@@H](CC(=O)O)C(=O)N1CCC[C@H]1C(=O)N[C@@H](CC(N)=O)C(=O)N[C@@H](CC(=O)O)C(=O)N[C@@H](CCC(N)=O)C(=O)N[C@@H](Cc1ccc(O)cc1)C(=O)N[C@@H](CCC(=O)O)C(=O)N1CCC[C@H]1C(=O)N[C@@H](Cc1ccccc1)C(=O)O)C(C)C)C(C)C [copper-64 labelled] — SUVmean (dynamic PET; mouse both sexes, CT26 tumour, checkpoint inhibitor-treated, tumour; intravenous, 100 µCi/mouse, 330 s): 2.56 SUV
CC(C)=CCC/C(C)=C/CCn1cc(CC(P(=O)(O)O)P(=O)(O)O)nn1 — clearance (CD-1 mouse, plasma; intravenous, 0.5 mg/kg, single dose): 5.6 mL/min/kg
